Experimental data collected from several papers.
A part holds a random share of what one study measured.
UniProt Q9Y4K4, sequence (whole entry, looked up): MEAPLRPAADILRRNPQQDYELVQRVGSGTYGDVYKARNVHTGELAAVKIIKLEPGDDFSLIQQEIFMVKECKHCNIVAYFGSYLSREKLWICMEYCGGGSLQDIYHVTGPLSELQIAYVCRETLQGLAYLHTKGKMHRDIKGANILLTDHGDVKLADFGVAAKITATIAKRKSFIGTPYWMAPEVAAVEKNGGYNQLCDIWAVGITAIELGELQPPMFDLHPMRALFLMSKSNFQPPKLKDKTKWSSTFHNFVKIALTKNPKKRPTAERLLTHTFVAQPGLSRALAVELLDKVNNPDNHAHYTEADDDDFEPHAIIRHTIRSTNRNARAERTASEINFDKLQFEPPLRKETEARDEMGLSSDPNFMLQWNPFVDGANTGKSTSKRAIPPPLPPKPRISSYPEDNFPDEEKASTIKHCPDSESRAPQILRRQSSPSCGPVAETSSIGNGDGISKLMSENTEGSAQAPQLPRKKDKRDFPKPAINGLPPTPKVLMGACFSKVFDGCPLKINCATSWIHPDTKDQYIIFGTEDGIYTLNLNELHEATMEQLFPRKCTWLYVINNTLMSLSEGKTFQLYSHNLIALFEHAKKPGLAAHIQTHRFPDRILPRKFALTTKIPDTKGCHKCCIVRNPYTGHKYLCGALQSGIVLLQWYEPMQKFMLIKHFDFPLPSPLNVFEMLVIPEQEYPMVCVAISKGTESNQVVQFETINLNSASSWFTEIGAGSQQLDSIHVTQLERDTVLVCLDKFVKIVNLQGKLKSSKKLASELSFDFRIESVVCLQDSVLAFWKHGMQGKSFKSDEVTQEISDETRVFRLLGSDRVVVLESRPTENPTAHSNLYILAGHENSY

Block 1
Target: Histone acetyltransferase KAT6A, both winged helices, GST fusion (KAT6A, Homo sapiens, UniProt Q92794, residues 1-181)
Method: protein binding microarray
Form: double-stranded DNA, one strand shown
Matrix: in vitro
Concentration: not given
Notes: 8-mer, flanks averaged, mean of 2 arrays, mostly near background
Baseline: not given
Reading: higher = stronger binding
Target sequence (chain): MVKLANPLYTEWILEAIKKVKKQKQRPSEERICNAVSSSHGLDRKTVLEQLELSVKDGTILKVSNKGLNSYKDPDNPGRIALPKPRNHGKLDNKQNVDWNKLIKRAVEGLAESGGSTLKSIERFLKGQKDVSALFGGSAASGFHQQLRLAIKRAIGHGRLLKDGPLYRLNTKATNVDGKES
Sequence	E-score
CACCAATC	-0.11
GCAAGCGA	0.0956
TAGGGGCA	-0.271
AAAAAACT	-0.171
AAATGAAA	-0.0312
AAAATTTG	-0.0057
ACGGTGCA	0.0467
AGAGTACG	0.0369

Block 2
Target: RING finger protein unkempt homolog, zinc fingers 1-6, GST-SBP tag (UNK, Homo sapiens, UniProt Q9C0B0, residues 30-357)
UniProt Q9C0B0, sequence (30-357, looked up): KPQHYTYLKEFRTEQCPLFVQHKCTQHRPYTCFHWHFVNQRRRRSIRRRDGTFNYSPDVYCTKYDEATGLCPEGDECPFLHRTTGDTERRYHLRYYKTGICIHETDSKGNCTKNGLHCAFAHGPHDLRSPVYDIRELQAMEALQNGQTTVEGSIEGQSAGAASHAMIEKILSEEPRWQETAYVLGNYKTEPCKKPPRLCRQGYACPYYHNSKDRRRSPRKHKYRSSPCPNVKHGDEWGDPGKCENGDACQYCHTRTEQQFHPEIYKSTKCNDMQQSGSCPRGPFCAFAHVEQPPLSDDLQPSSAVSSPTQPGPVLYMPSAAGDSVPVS
Method: RNA Bind-n-Seq
Form: RNA
Matrix: in vitro
Concentration: not given
Notes: RNA with constant flanks, ends assumed
Baseline: input RNA pool
Reading: higher = stronger binding
Constant ends, left off below: GGGAGUUCUACAGUCCGACGAUC … CAACAGAGGAUUGAGCAUCA
Sequence	bound/input enrichment [ratio]
AGCAGGAAGGGCCUCAUAGCUGCCAUCUGUGCAGGUCCUACGGCUCUGUUGGCUCACGAAGCCGGUUUUGGAUGCAAGGUCACAACACACCCACUGGCUAAGGACAAAAUGAUGAAUGGC	0.0993
AGAAGCUUCAUAAGGAAUAAACAAGUUGAAUAGAGAAAACACUGAUUGAUAAUAGGCAUUUCCGUGGUCUUUUUAAUGUUUUCUGCUGUGAAACAUUUCAAGAUUUAUUGAUUUUUUUUU	0.929
AUAAAAUUAGAAACUUAAAUUCCAAGCUAAAUUUCAGCUUUGACCCACCUAACUCCAGUGAACCGGUGGCAGCUCAGAAACAAGGACAGCACUGCUGCUGCCAGAGCAAGCUCACAUCCA	6.28
CAAAUACUAGAGAAUCUUUCCACUUCGCCUCUGGCUGAGCCACCCCACUUUGUUGAACAUAUCCGAUCUACCUUGAUGUUUUUAAAAAAACACCCAUCUCCAGCUCACACACUGUUUUCU	0.884
GCCAGCCCUGCGCCUCGCGCCGUCGCGCAUGCGUCCUGGUCUUUCUCUAGAGUUGUAUAUACCGAACAUCCUGGAGUCCACCAUGAACGGACAGUUGGAUCUAAGUGGGAAGCUAAUCAU	0.108
AGAGAAGAGAUUCUGGCAUUUAUUAAGUCUUGCCAACAUGAAUGUGGUGGAAUAAGUGCCCGUAUCGGACAUGAUCCUCAUCUUUUAUACACUCUUAGUGCUGUCCAGAUUCUUACGCUG	0.139
AUUGUUCACAGAGACCUCAAGGCUGAAAAUCUGUUAUUAGAUGCGGAUAUGAACAUUAAAACCGCAGAUUUUGGUUUUAGCAAUGAAUUUACUGUUGGCAGUAAACUAGACACGUUUUGU	0.619
UUUUAUAUCAAACAAAAGAAAGCUAGACCUUCCGUCAAAGAAACUCUUCAGAAGUCUGGUGUCCGGAAAGAGUUUCCAAUUACUGAGGCAGUAGGAUCUGAUAAGACAAAUAGGCAUCCC	1.12

Block 3
Target: Sal-like protein 4, full length isoform A (SALL4, Homo sapiens, UniProt Q9UJQ4, residues 1-1053)
UniProt Q9UJQ4, sequence (whole entry, looked up): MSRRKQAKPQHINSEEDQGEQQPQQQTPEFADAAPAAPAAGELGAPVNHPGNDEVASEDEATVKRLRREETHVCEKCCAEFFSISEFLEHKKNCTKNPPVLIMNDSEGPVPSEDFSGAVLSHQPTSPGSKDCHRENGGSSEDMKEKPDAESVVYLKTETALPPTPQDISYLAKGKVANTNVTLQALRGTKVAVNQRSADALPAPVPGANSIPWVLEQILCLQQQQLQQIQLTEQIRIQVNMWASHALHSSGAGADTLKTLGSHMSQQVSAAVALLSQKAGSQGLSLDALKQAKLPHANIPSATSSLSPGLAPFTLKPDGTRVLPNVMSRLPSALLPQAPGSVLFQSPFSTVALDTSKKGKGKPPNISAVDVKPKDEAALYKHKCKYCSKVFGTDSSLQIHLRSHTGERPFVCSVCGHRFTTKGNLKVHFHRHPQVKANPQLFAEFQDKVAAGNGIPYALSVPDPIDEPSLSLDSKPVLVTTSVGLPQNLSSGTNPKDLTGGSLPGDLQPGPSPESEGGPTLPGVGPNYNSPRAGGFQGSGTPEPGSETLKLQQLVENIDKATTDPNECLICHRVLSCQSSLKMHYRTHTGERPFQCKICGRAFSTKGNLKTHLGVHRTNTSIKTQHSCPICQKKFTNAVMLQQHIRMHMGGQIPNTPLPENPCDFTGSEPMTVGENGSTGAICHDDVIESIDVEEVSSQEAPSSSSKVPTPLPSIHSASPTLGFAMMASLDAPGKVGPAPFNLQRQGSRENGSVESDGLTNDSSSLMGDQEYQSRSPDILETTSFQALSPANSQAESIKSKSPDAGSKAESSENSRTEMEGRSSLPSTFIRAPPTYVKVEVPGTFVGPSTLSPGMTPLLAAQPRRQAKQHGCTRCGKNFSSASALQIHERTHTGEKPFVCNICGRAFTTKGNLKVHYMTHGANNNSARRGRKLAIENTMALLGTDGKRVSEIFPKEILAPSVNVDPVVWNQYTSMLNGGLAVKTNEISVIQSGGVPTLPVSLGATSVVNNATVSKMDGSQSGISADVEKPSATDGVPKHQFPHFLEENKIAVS
Method: universal PBM
Form: double-stranded DNA, one strand shown
Matrix: in vitro
Concentration: 600 nM
Notes: 8-mer, flanks averaged, mean of replicates
Reading: higher = stronger binding
Sequence	E-score
CCCCTTAG	-0.309
ACCCAGAG	-0.181
TAACGTCA	0.243
ATCGGCTA	0.0481
CCTACCTA	0.0123
ATAGTCAA	0.233
GCCACTAA	-0.0691
ACTTCAAA	0.105

Block 4
Target: HLA class I histocompatibility antigen, C alpha chain, allele C*04:01 (Homo sapiens, UniProt P10321)
Observed: peptide-MHC binding
Form: peptide
Concentration: concentration not given
Molecule	binding
LYDAVAALF	active
AYPELACAV	inactive
YIDISDVKV	inactive
YVDIYAASV	inactive
IQNDLITEF	inactive
FSFGGFTFK	inactive
FYYNAFHWAI	inactive
RYAYTSVEF	inactive
YYFQSGNEI	inactive
YTLNDAPYI	inactive
FQPQNGQYI	inactive
MTMITPPTF	inactive
FADSDNIAM	inactive
VEMQLAVVI	inactive
ITPTIYLLL	inactive
FPYAIRLVA	inactive
YYWPRPRRY	inactive
MSWGWRLPF	inactive
LYSRSFWFF	inactive
YFYYNAFHW	inactive
NTDSSLQSM	inactive
RLKFSLSYK	inactive
YTKKYLLSF	inactive
VSITNPFLF	inactive
FEYGGFPPA	inactive

Other studies, line by line
Molecule	target	test	test system	setting	how to read	quantity	value
CC(C)(C)c1cc(C=C(C#N)C#N)cc(Br)c1O	Mitogen-activated protein kinase kinase kinase kinase 5 (MAP4K5, Homo sapiens, UniProt Q9Y4K4)	enzyme activity, inhibitor		0.5 µM		remaining activity	95.8%
AAAVRKPIVLKR	human cyclin B1	peptide binding, yeast competitive growth sequencing	peptide, Saccharomyces cerevisiae, cyclin B1-Cln2 fusion	concentration not given, peptide tiling library	baseline: Cln2 fusion control, direction not given	binding enrichment score	-0.0293

Repeated from above (block 4):
Molecule	binding
IQNDLITEF	inactive
ITPTIYLLL	inactive
RYAYTSVEF	inactive
MTMITPPTF	inactive
YYWPRPRRY	inactive
AYPELACAV	inactive
RLKFSLSYK	inactive
